# Published values collected from several papers.
# Compare with care: the assays were run in different laboratories. ± marks the error that the study gave.
# Genome polyprotein NS2B-NS3 protease: Genome polyprotein, NS2B-NS3 protease (dengue virus type 2, UniProt P29990)
# APP: Amyloid-beta precursor protein (APP, Homo sapiens, UniProt P05067)
# Chain of UniProt P05067 (whole entry, looked up): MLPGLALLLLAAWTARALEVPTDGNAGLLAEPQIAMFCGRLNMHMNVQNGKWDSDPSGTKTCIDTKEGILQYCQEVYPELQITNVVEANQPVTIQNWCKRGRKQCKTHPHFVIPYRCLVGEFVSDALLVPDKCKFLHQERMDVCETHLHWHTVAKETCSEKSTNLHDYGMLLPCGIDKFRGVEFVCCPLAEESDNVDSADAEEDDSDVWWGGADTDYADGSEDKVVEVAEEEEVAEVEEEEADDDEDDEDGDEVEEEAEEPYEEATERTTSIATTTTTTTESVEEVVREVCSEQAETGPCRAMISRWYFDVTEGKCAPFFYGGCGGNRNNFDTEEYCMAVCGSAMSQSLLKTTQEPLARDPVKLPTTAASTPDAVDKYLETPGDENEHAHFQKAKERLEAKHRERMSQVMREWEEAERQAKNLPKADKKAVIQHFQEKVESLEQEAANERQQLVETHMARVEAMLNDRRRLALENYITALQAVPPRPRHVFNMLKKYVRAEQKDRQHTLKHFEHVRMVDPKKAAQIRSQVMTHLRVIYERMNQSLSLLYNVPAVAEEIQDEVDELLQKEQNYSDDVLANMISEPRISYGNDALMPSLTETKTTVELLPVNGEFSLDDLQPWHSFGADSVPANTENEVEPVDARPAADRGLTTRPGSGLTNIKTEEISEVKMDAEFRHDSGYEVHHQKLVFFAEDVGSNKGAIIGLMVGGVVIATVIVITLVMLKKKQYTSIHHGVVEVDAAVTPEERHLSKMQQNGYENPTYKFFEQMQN
# Tripartite terminase subunit 3 C-terminal nuclease domain: Tripartite terminase subunit 3, C-terminal nuclease domain (Human betaherpesvirus 5, UniProt P16732)
# Chain of UniProt P16732 (whole entry, looked up): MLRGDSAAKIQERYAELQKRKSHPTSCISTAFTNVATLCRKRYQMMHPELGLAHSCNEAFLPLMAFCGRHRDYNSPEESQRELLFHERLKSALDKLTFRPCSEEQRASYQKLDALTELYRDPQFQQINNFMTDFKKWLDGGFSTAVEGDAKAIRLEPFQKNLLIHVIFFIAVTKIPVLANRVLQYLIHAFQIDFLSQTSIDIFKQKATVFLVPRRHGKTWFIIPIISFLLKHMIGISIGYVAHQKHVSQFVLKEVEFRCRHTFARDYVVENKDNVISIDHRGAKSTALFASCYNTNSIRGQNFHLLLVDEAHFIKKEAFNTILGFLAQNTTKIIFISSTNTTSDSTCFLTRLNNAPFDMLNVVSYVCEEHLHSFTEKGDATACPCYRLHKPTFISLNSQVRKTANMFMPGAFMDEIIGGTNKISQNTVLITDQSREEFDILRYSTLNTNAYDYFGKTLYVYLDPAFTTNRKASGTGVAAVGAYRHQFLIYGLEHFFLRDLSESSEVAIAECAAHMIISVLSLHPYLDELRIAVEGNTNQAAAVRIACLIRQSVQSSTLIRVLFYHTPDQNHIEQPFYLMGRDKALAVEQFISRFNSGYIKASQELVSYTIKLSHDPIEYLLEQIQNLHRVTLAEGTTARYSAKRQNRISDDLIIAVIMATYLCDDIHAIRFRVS
# Chain of UniProt P78536 (whole entry, looked up): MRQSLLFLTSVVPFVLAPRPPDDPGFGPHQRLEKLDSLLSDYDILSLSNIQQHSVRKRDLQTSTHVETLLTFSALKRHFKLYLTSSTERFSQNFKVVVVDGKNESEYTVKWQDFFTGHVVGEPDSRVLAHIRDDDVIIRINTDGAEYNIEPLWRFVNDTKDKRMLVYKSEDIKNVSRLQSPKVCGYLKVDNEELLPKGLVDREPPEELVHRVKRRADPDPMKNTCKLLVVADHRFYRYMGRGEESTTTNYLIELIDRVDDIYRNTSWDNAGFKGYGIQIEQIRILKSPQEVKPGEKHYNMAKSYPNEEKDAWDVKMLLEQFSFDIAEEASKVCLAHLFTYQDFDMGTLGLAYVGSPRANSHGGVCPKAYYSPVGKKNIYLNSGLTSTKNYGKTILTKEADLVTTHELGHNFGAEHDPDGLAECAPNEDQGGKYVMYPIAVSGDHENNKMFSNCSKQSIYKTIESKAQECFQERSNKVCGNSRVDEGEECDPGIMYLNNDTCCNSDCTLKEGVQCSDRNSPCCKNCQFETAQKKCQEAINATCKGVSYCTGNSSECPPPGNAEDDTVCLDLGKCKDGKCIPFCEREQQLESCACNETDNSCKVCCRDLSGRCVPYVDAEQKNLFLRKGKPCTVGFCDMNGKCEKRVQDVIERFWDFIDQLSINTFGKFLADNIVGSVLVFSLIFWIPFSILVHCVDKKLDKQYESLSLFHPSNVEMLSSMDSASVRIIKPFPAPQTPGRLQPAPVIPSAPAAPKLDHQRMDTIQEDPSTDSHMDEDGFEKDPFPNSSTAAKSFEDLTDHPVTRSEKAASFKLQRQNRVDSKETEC
# Chain of UniProt P30926 (whole entry, looked up): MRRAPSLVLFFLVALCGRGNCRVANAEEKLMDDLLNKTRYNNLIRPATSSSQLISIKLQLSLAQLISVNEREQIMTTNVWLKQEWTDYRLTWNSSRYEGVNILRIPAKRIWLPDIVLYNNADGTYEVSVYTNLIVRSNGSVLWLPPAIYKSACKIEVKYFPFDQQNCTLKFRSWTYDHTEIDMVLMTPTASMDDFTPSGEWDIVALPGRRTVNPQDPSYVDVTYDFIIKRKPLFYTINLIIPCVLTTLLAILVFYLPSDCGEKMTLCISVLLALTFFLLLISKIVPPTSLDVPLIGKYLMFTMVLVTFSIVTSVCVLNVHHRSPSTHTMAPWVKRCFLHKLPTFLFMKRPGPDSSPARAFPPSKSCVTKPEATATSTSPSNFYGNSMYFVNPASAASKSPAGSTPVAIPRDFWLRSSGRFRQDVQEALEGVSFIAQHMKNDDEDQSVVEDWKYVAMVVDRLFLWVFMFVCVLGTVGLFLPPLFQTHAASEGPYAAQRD
# Chain of UniProt P32297 (whole entry, looked up): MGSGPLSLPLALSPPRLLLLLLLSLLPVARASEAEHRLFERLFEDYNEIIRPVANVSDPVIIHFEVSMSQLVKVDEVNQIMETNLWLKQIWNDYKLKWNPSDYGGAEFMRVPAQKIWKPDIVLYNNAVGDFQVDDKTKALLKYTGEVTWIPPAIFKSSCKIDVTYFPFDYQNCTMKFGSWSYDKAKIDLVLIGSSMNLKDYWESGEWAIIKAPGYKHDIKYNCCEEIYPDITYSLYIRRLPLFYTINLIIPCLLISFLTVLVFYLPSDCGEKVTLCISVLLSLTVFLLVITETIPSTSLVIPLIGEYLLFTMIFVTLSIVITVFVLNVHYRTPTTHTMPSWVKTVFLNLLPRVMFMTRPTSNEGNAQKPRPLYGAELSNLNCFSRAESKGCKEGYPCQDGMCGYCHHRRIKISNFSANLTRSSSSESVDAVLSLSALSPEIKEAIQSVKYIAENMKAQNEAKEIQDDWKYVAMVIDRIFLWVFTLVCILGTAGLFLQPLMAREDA
# Chain of UniProt P43119 (whole entry, looked up): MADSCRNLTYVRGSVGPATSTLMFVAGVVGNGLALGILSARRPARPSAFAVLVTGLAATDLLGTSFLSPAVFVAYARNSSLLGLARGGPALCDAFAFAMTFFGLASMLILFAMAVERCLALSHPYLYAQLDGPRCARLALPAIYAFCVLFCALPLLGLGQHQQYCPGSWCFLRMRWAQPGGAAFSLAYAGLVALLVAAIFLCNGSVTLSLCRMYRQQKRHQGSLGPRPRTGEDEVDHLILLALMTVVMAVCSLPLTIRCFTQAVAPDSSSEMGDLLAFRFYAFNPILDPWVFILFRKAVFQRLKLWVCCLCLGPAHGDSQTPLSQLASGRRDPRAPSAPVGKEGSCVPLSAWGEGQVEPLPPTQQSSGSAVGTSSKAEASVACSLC
# Chain of UniProt P35372 (whole entry, looked up): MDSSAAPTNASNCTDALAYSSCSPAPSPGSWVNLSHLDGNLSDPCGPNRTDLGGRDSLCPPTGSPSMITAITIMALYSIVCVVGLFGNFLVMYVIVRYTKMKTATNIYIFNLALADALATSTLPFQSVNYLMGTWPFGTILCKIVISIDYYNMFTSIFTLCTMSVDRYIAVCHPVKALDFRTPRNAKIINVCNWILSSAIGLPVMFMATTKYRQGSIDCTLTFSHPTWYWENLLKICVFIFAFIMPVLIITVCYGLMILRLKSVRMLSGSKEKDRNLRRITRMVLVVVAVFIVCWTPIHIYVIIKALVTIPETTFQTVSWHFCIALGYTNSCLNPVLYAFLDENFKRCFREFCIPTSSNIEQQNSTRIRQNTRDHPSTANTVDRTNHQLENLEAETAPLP
# Chain of UniProt P46109 (whole entry, looked up): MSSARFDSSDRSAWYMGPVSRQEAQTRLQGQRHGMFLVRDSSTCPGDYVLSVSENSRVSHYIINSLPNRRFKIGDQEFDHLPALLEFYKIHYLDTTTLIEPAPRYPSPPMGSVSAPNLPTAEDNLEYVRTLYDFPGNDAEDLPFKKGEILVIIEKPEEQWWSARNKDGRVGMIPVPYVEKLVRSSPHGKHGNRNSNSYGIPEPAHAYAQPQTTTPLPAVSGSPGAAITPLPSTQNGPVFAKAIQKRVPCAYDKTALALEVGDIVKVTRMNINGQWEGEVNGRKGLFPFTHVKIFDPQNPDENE
# Chain of UniProt O43194 (whole entry, looked up): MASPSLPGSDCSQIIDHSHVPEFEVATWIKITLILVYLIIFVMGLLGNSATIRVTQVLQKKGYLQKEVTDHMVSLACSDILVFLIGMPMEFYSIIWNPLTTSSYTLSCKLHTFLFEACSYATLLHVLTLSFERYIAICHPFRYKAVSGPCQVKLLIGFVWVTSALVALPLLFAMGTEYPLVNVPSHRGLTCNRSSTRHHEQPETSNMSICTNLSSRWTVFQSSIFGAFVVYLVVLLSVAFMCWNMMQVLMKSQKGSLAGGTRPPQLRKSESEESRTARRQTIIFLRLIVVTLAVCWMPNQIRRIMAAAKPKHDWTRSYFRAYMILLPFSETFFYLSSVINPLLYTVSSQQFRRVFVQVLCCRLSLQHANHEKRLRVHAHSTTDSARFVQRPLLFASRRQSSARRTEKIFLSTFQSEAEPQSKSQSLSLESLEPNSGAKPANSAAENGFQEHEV
SMILES,tested on,test,test system,setting,how to read,endpoint,value
COc1cccc(C(=O)Nc2ccc3c(c2)B(O)OC3)c1,Genome polyprotein NS2B-NS3 protease,"enzyme activity, FRET",dengue virus serotype 2,"50 µM, with: substrate 50 µM",,inhibition,≤ 10%
Cc1ccc(S(=O)(=O)Oc2ccc3c(c2)Oc2nc4c(c(N)c2C3c2ccc(Cl)c(Cl)c2)CCCC4)cc1 (stereo not drawn),APP,"Aβ42 self-aggregation, inhibitor, thioflavin T fluorescence",,100 µM,,inhibition,75%
O=c1[nH]c2sc(-c3ccccc3)cc2c(=O)n1O,Tripartite terminase subunit 3 C-terminal nuclease domain,"endonuclease activity, ELISA",,"20 µM, with: dsDNA",,inhibition,85%
Nc1c2c(nc3c1C(c1cccc([N+](=O)[O-])c1)c1ccc(OS(=O)(=O)c4ccc(F)cc4)cc1O3)CCCC2 (stereo not drawn),APP,"Aβ42 self-aggregation, inhibitor, thioflavin T fluorescence",,0.1 µM,,inhibition,7.3%
COc1ccc(N2C(=O)N(c3c(C)cccc3Cl)Cc3cnc(Nc4ccc(C5CCN(C)CC5)cc4OC)nc32)nc1,"Serine/threonine-protein kinase B-raf (BRAF, Homo sapiens, UniProt P15056)",kinase activity,,0.5 µM,,inhibition,16%
CN(C(=O)n1cnc(-c2ccc[n+]([O-])c2)c1)C1CCCCC1,"5-hydroxytryptamine receptor 3A (HTR3A, Homo sapiens, UniProt P46098)",radioligand binding,,"10 µM, with: [3H]GR-65630",,inhibition,10%
CC(=O)N[C@@H]1C(NC(=N)N)C[C@](OC2C(O)[C@H](Oc3ccc([N+](=O)[O-])cc3)OC(CO)[C@@H]2O)(C(=O)O)OC1[C@H](O)[C@H](O)CO (stereo partly drawn),"Sialidase A (nanA, Streptococcus pneumoniae, UniProt P62575)",,,"8 µM, pH 6",,inhibition,0.2 ± 0.7%
C[C@H]1CN(c2n[nH]c3nc(N[C@H]4CC[C@H](NS(=O)(=O)CCC(F)(F)F)CC4)ncc23)CCO1,"Crk-like protein (Homo sapiens, UniProt P46109)",biochemical,,,,IC50,≥ 20 µM
OB1OCc2cc(F)ccc21,Genome polyprotein NS2B-NS3 protease,"enzyme activity, FRET",dengue virus serotype 2,"50 µM, with: substrate 50 µM",,inhibition,≤ 10%
Cc1cccc(N2CCN(C(=O)C3CCN(Cc4nc(-c5ccc(Cl)cc5)oc4C)CC3)CC2)c1C,Vero-E6,CellTiter-Glo ATP,,"concentration not given, 72 h, retest 8-point duplicates","baseline: DMSO 0%, hyamine -100%, more negative, more toxic",cytotoxicity efficacy,0%
O=C(Nc1cnccc1Cl)N1CCN(Cc2ccc3c(c2)OC(F)(F)O3)CC1,"Mu-type opioid receptor (OPRM1, Homo sapiens, UniProt P35372)","radioligand binding, inhibitor",,"10 µM, human, with: [3H]diprenorphine",,inhibition,8%
CC[N+]1(CC)CCN(c2ccccc2)CC1,"Neuronal acetylcholine receptor subunit alpha-9 (CHRNA9, Homo sapiens, UniProt Q9UGM1)","antagonist, two-electrode voltage clamp",Xenopus laevis oocytes,"30 µM, with RAPSYN, with: acetylcholine 60 µM",,inhibition,90%
O=C(Nc1cccnn1)N1CCC(=Cc2cccc(Oc3ccc(C(F)(F)F)cn3)c2)CC1,"Prostacyclin receptor (PTGIR, Homo sapiens, UniProt P43119)","radioligand binding, inhibitor",,"50 µM, human, with: [3H]iloprost",,inhibition,30%
CN1CCN(c2cc(-c3ccncc3)c(-c3ccc4ccccc4c3)nn2)CC1,"G-protein coupled receptor 39 (GPR39, Homo sapiens, UniProt O43194)","antagonist, FLIPR",,10 µM,,inhibition,-7%
N#Cc1ccc(CNc2ccc3c(c2)B(O)OC3)cc1,Genome polyprotein NS2B-NS3 protease,"enzyme activity, FRET",dengue virus serotype 2,"50 µM, with: substrate 50 µM",,inhibition,22 ± 4%
O=C1NCN(c2ccccc2)C12CCNCC2,"Retinal rod rhodopsin-sensitive cGMP 3',5'-cyclic phosphodiesterase subunit delta (PDE6D, Homo sapiens, UniProt O43924)","enzyme activity, inhibitor",,5 µM,,inhibition,39.5%
CN1CCCC2(C1)CN(Cc1cccnc1)c1ccc(C(=O)NCC3CCCCC3)cc12 (stereo not drawn),Vero-E6,CellTiter-Glo ATP,,"concentration not given, 72 h, retest 8-point duplicates","baseline: DMSO 0%, hyamine -100%, more negative, more toxic",cytotoxicity efficacy,0%
c1ccc(C(NCCNC(c2ccccc2)c2ccccc2)c2ccccc2)cc1,"Disintegrin and metalloproteinase domain-containing protein 17 (ADAM17, Homo sapiens, UniProt P78536)",enzyme activity,,"10 µM, Eurofins selectivity panel",,inhibition,-10%
C[C@@]12C(=O)OC(=O)[C@]1(C)[C@H]1CC[C@@H]2O1,"Toll-like receptor 2 (TLR2, Homo sapiens, UniProt O60603)","SEAP reporter gene, antagonist",HEK-Blue hTLR2,"10 µM, with: Pam3CSK4",,inhibition,> 90%
O=c1[nH]c2c(-c3ccccc3)csc2c(=O)n1O,Tripartite terminase subunit 3 C-terminal nuclease domain,"endonuclease activity, ELISA",,"20 µM, with: dsDNA",,inhibition,90%
CCN1C[C@]2(COC(=O)c3ccccc3N3C(=O)C[C@H](C)C3=O)CC[C@H](OC)[C@@]34[C@@H]5C[C@H]6[C@H](OC)[C@@H]5[C@](O)(C[C@@H]6OC)[C@](O)([C@@H](OC)[C@H]23)[C@@H]14,"Neuronal acetylcholine receptor; alpha3/beta4 (Homo sapiens, UniProt P30926+P32297)","ion current, antagonist, whole-cell patch clamp",HEK293T cells,concentration not given,,inhibition,89.51 ± 0.01%

# Excerpt of the above:
SMILES,tested on,test,test system,setting,how to read,endpoint,value
C[C@@]12C(=O)OC(=O)[C@]1(C)[C@H]1CC[C@@H]2O1,"Toll-like receptor 2 (TLR2, Homo sapiens, UniProt O60603)","SEAP reporter gene, antagonist",HEK-Blue hTLR2,"10 µM, with: Pam3CSK4",,inhibition,> 90%
O=c1[nH]c2c(-c3ccccc3)csc2c(=O)n1O,Tripartite terminase subunit 3 C-terminal nuclease domain,"endonuclease activity, ELISA",,"20 µM, with: dsDNA",,inhibition,90%
